Experimental data collected from several papers.
Compare with care: the assays were run in different laboratories. Numbers after ± are the reported error.

`CCCCCCCCCCCCCC(=O)NCC(=O)N[C@@H](CCCNC(=N)N)C(=O)N[C@@H](Cc1c[nH]c2ccccc12)C(=O)N[C@@H](CCCCN)C(=O)N[C@H](C(=O)N[C@@H](Cc1ccccc1)C(=O)N[C@@H](CCCCN)C(=O)N[C@@H](CCCCN)C(=O)N[C@H](C(=O)N[C@@H](CCC(=O)O)C(=O)N[C@@H](CCCCN)C(=O)N[C@H](C(=O)NCC(=O)N[C@@H](CCC(N)=O)C(=O)N[C@@H](CC(N)=O)C(=O)N[C@H](C(=O)N[C@@H](CCCNC(=N)N)C(=O)N[C@@H](CC(=O)O)C(=O)NCC(=O)N[C@H](C(=O)N[C@H](C(=O)N[C@@H](CCCCN)C(=O)N[C@@H](C)C(=O)NCC(=O)N1CCC[C@H]1C(=O)N[C@@H](C)C(=O)N[C@H](C(=O)N[C@@H](C)C(=O)N[C@H](C(=O)N[C@H](C(=O)NCC(=O)N[C@@H](CCC(N)=O)C(=O)N[C@@H](C)C(=O)N[C@@H](C)C(=O)N[C@H](C(=O)N[C@H](C(N)=O)[C@@H](C)CC)[C@@H](C)O)C(C)C)C(C)C)C(C)C)C(C)C)[C@@H](C)CC)[C@@H](C)CC)C(C)C)[C@@H](C)CC)[C@@H](C)CC` — result for “Bcl-2 protein level”: “decreased” (Jurkat; western blot; concentration not given, 16 h).
`COc1ccc2c(c1)C1CC(C)(N2)c2c(C)nc3ccc(OC)cc3c21` (stereo not drawn) gave a selectivity index of over 165 (HEK293; reference: CC50 HEK293 over INDO IC50).
`CCCCCCCCOCc1cn(CC2=CC[C@@H]3C(C(=O)OC)=CO[C@@H](O)[C@H]23)nn1` gave a viability of 65.9 ± 1.1% (SK-N-SH; neuroprotection, MTT; 0.6 µM, 24 h, added: 250 µM H2O2).
The viability of `Cc1ccnc(Nc2c3c(nc4ccccc24)CCCC3)c1` is reported as 61.8 ± 1.55% (SH-SY5Y; MTT; 50 µM, 1 h pretreatment, 10% FBS, added: H2O2).
The viability of `COC(=O)C1=CO[C@@H](OC(C)=O)[C@@H]2C(Cn3cc(CCCCN4C(=O)c5ccccc5C4=O)nn3)=CC[C@H]12` is reported as 50.7 ± 0.5% (SK-N-SH; neuroprotection, MTT; 0.075 µM, 24 h, added: 250 µM H2O2).
`F[P-](F)(F)(F)(F)F.F[P-](F)(F)(F)(F)F.[Ru+2].c1ccc(-c2ccccn2)nc1.c1ccc(-c2ccccn2)nc1.c1csc(-c2cc3cccnc3c3ncccc23)c1` has a phototherapeutic index of 1 (SK-MEL-28; cell viability; red light 625 nm; reference: dark EC50 over light EC50).
`CCOC(=O)c1ccc(NC(=S)Nc2ccc3c(c2)C(C)(C)CC(C)(C)S3)cc1`: “maximum growth inhibition” 35.3 ± 2.09% (HK-2; MTS; range over 1 to 12.5 µM, 48 h).
For `COC(=O)C1=CO[C@@H](OC(C)=O)[C@@H]2C(Cn3cc(CCCO)nn3)=CC[C@H]12`, the viability was 66.6 ± 0.1% (SK-N-SH; neuroprotection, MTT; 0.3 µM, 24 h, added: 250 µM H2O2).
For `CCC(C)C(=O)OC1C2C3(C)CCC(OC4CC(OC)C(OC5OC(C)C(OC6OC(CO)C(O)C(O)C6O)C(OC)C5O)C(C)O4)CC3CCC23OC32CCC(C(C)=O)C2(C)C1OC(C)=O` (stereo not drawn), “fold reversal of IC50” read 1 (MDA435/LCC6-MDR1; cell growth, MDR reversal, SRB; 10 µM, added: paclitaxel; reference: paclitaxel alone over combination).
`Cc1cccc(C)c1OCC(=O)N[C@@H](Cc1ccccc1)[C@H](C[C@H](Cc1ccccc1)NC(=O)[C@H](C(C)C)N1CCCNC1=O)OC(=O)[C@H](CC(C)C)NC(=O)[C@@H](N)Cc1cnc[nH]1` gave an inhibition of about 30% (MDCK-MDR1, MDCK-MRP2 and Caco-2 cells; transport, inhibitor; 25 µM, unlabelled L-histidine 10 mM, added: [3H]-L-histidine).
For `[N]#[Os]([Cl])([Cl])[Cl].c1ccc(-c2ccnc3c2ccc2c(-c4ccccc4)ccnc23)cc1`, protein level read “increased” (A2780; immunoblot, item: phospho-eIF2α and CHOP; concentration not given, 72 h).
The viability of `CCCCCCCCOCc1cn(CC2=CC[C@@H]3C(C(=O)OC)=CO[C@@H](OC(C)=O)[C@H]23)nn1` is reported as 74.4 ± 0.6% (SK-N-SH; neuroprotection, MTT; 0.6 µM, 24 h, added: 250 µM H2O2).
`CC(C)CC(O)(CC(C)C)c1cn(C(=O)N2CCCC2)nn1` gave a protein level of 1.01 ± 0.12 (mouse T-cells; SILAC proteomics, item: S100A4; 1 nM, 6 h, unit not given; reference: DMSO).
For `COC(=O)C1=CO[C@@H](OC(C)=O)[C@@H]2C(Cn3cc(COCc4ccc(OC)c(OC)c4)nn3)=CC[C@H]12`, the viability was 71.7 ± 0.06% (SK-N-SH; neuroprotection, MTT; 0.15 µM, 24 h, added: 250 µM H2O2).
The resistance factor of `Cc1cc(C)c(N2CCN(c3c(C)cc(C)cc3C)C2=[Se])c(C)c1.[Cl][Ag]` is reported as 0.8 (LoVo-OXP colon cancer cells; MTT; reference: LoVo-OXP over LoVo IC50).

Excerpt of the above:
The viability of `CCCCCCCCOCc1cn(CC2=CC[C@@H]3C(C(=O)OC)=CO[C@@H](OC(C)=O)[C@H]23)nn1` is reported as 74.4 ± 0.6% (SK-N-SH; neuroprotection, MTT; 0.6 µM, 24 h, added: 250 µM H2O2).
`F[P-](F)(F)(F)(F)F.F[P-](F)(F)(F)(F)F.[Ru+2].c1ccc(-c2ccccn2)nc1.c1ccc(-c2ccccn2)nc1.c1csc(-c2cc3cccnc3c3ncccc23)c1` has a phototherapeutic index of 1 (SK-MEL-28; cell viability; red light 625 nm; reference: dark EC50 over light EC50).
